Results gathered from unrelated publications.
Compare with care: the assays were run in different laboratories. “And” joins repeats or separate records; there may be more than shown. Numbers after ± are the reported error.

SMILES | test | system | setting | how to read | measurement | value
CCCC[C@H](NC(=O)CNC(=O)CNC(=O)CN1CCN(CC(=O)O)CCN(CC(=O)O)CCN(CC(=O)O)CC1)C(=O)N[C@H]1CC(=O)NCCCC[C@@H](C(N)=O)NC(=O)[C@H](Cc2c[nH]c3ccccc23)NC(=O)[C@H](CCCNC(=N)N)NC(=O)[C@@H](Cc2ccccc2)NC(=O)[C@H](Cc2c[nH]cn2)NC1=O [copper-64 labelled] |  | C57 mouse, B16/F1 melanoma, urine | dose not given, 2 h |  | urinary excretion | 63 % injected dose
CC(C)C[C@@H](NC(=O)[C@H](NC(=O)[C@H]1CCCN1)[C@H](C)O)C(=O)N[C@H](Cc1c[nH]cn1)C(=O)N[C@@H](C(=O)N[C@H](Cc1c[nH]cn1)C(=O)N[C@H](CC(N)=O)C(=O)N[C@H](CCCNC(=N)N)C(=O)N[C@H](CCCNC(=N)N)C(=O)N[C@H](CCCNC(=N)N)C(=O)N[C@H](CCCNC(=N)N)C(=O)N[C@H](CCCNC(=N)N)C(N)=O)[C@H](C)O |  | young Beagle dog, plasma | intravenous, 3 mg/kg single dose |  | alpha half-life | 3 min and 2.76 min
CC[C@H](C)[C@H](NC(=O)[C@@H]1CCCN1C(=O)CNC(=O)[C@H](Cc1ccccc1)NC(=O)[C@H](CC(N)=O)NC(=O)[C@H](CC(N)=O)NC(=O)[C@H](CO)NC(=O)[C@H](CO)NC(=O)[C@H](Cc1c[nH]cn1)NC(=O)[C@@H](NC(=O)[C@H](CC(C)C)NC(=O)[C@H](Cc1ccccc1)NC(=O)[C@H](CC(N)=O)NC(=O)[C@H](C)NC(=O)[C@H](CC(C)C)NC(=O)[C@H](CCCNC(=N)N)NC(=O)[C@H](CCC(N)=O)NC(=O)[C@@H](NC(=O)[C@H](C)NC(=O)[C@@H]1CSSC[C@H](NC(=O)[C@@H](N)CCCCN)C(=O)N[C@@H](CC(N)=O)C(=O)N[C@@H]([C@@H](C)O)C(=O)N[C@@H](C)C(=O)N[C@@H]([C@@H](C)O)C(=O)N1)[C@@H](C)O)C(C)C)C(=O)N[C@@H](CC(C)C)C(=O)N[C@@H](CO)C(=O)N1CCC[C@H]1C(=O)N[C@H](C(=O)N[C@@H](CC(N)=O)C(=O)N[C@H](C(=O)NCC(=O)N[C@@H](CO)C(=O)N[C@@H](CC(N)=O)C(=O)N[C@H](C(=O)N[C@@H](Cc1ccc(O)cc1)C(N)=O)[C@@H](C)O)C(C)C)[C@@H](C)O | ion mobility mass spectrometry | nitrogen drift gas | dimer ion charge +4 |  | collision cross section | 896.1 ± 2.3 Å²
C[C@]12C[C@H](c3ccc(-c4ccc(C(=O)O)cc4)cc3)C3=C4CCC(=O)C=C4CC[C@H]3[C@@H]1CC[C@@]2(O)C(F)(F)C(F)(F)F |  | human liver microsomes | 100 % absorption assumed |  | maximal oral bioavailability | 97%
N#Cc1nc(N2CCOCC2)nc(N(Cc2ccc(F)cc2)CC2CCCNC2)n1 (centres unmarked) |  | female CD-1 mice | intraperitoneal, 10 mg/kg, 0.5 h |  | brain concentration | 36.1 ng/g
Cc1ccc([C@@H]2O[C@H](CO)[C@@H](O)[C@H](O)[C@H]2O)cc1Cc1ccc(-c2ccc(F)cc2)s1 |  | albino rabbit, plasma | oral or sublingual, dose not given |  | AUC(0-24h) | 11000 ± 987 ng·h/mL
N=C(N)NCCC[C@@H]1NC(=O)[C@H](Cc2c[nH]c3ccccc23)NC(=O)[C@@H](CC2CCCCC2)NC(=O)[C@@H]2CCCN2C(=O)[C@@H](NC(=O)CCc2ccccc2)CCCNC1=O |  | C57BL/6J mice, brain | intraperitoneal, 1 mg/kg, two-compartment model |  | apparent central volume (V1/F) | 0.08 µg/(ng/g)
CCCC[C@@H]1NC(=O)[C@@H](NC(=O)[C@H](CCC(=O)O)NC(=O)CNC(=O)CN2CCN(CC(=O)O)CCN(CC(=O)O)CCN(CC(=O)O)CC2)CCCCNC(=O)C[C@@H](C(N)=O)NC(=O)[C@H](C(C)C)NC(=O)[C@@H]2CCCN2C(=O)[C@H](CCCNC(=N)N)NC(=O)CNC(=O)[C@H](Cc2c[nH]c3ccccc23)NC(=O)[C@H](CCCNC(=N)N)NC(=O)[C@@H](Cc2ccccc2)NC(=O)[C@H](Cc2c[nH]cn2)NC(=O)[C@H](CCC(=O)O)NC1=O [gallium-67 labelled] |  | C57 mice with B16/F1 melanoma | intravenous, 0.037 MBq/mouse, 4 h | baseline: tumour over blood | tumour to blood ratio | 47.8
CCCCCCNCC(=O)O | shake flask | water | 24 h |  | logP | -0.89
CC(C)[C@H](NC(=O)CNC(=O)[C@H](CCC(N)=O)NC(=O)[C@H](C)N)C(=O)O | LC-MS/MS | human, male, plasma | intravenous, 20 mg/kg three times daily, day 2, first dose, 10 min infusion, geometric mean |  | clearance | 850 mL/min/kg
O=[11C](OC(C(F)(F)F)C(F)(F)F)N1CCC(CNS(=O)(=O)c2ccc(Cl)cc2)CC1 | PET | Sprague-Dawley rat, pons | intravenous |  | uptake | 1.25 SUV
CCOc1ccc2c(c1)C(C)=CC(C)(C)N2c1cc(OCC)cc2c1NC(C)(C)C=C2C | LC-MS/MS | laying hens, skin and fat | oral in feed, 50 mg/kg feed ethoxyquin, 56 days |  | tissue residue | 42.3 ± 19.2 ng/g
CN1CCC[C@]1(C)/C=C/S(=O)(=O)NC(=O)Nc1c2c(cc3c1CCC3)CCC2 |  | human, plasma | oral, 50 mg, single dose, healthy volunteers |  | AUC(0-inf) | 41400 ng·h/mL
Cc1ccc(OCC(=O)N(Cc2cccs2)c2ccn[nH]2)cc1 | LC-MS extracted ion chromatogram | human liver microsomes | 10 µM, 60 min | baseline: parent at time 0 min | relative peak area | 3.15%
Cc1cccc(O[C@H]2CCC[C@@H](C(C)CNCc3ccncc3)C2)c1 (relative stereo) |  | C57BL/6 mouse female, brain | oral, 25 mg/kg |  | Clast | 57 ng/mL
Cc1cc(C)nc(NC(=S)N2CCN(Cc3ccc(C(F)(F)F)cc3)CC2)c1 |  | female NOD.SCID mice, MDA-MB-468 orthotopic xenograft, tumour | intraperitoneal, 40 mg/kg daily, 24 days |  | concentration | ~3000 nM
CCC(c1nnnn1Cc1cccs1)N1CCN(c2nc3cc(N)cc(F)c3s2)CC1 (centres unmarked) | confocal laser scanning microscopy | Tris-HCl-Mg buffer | 90 µM, 5% DMSO |  | aggregate size | < 30 µm
CCCCN1C(=O)c2cccc3c(NCCCN4CCOCC4)ccc(c23)C1=O |  | aqueous medium | pH 6 |  | average fluorescence lifetime | 5.4 ns
CC(=O)N[C@H](CSSC[C@H](N)C(=O)O)C(=O)N[C@H](C)C(=O)N[C@H](CCCNC(=N)N)C(=O)N[C@H](CCCNC(=N)N)C(=O)N[C@H](CCCNC(=N)N)C(=O)N[C@H](C)C(=O)N[C@H](CCCNC(=N)N)C(N)=O |  | male human, plasma | intravenous, 10 mg, single dose, healthy volunteers |  | Vd | 150 L
NC[C@@H](C(=O)Nc1ccc(-c2cn[nH]c2)cc1)c1ccccc1 | OECD 405 eye irritation | New Zealand White rabbit, eye | topical, 0.1%, 48 h (day 3) | direction not given | total eye irritation score | 0
CNC(=O)N[C@]1(C)CCC[C@@]2(C)C3CC[C@@]4(C)C[C@]3(CCC21)CC4=O (single isomer, unassigned) |  | rat plasma | 1.5 ng/mL, 8 h, room temperature, short-term stability | baseline: nominal concentration | relative error | -8%

SMILES | test | system | setting | how to read | measurement | value
[11CH3]c1ccc2nc(C3CCC3)n(-c3ccc4[nH]ncc4c3)c2n1 |  | human female, muscle |  |  | absorbed radiation dose | 2.4 µSv/MBq
Cn1c(=O)oc2ccc(-c3ccc(CC(C#N)NC(=O)C4CNCCCO4)c(F)c3)cc21 (centres unmarked) |  | human | dose not given, single ascending doses, all subjects |  | subjects with triglyceride increase | 23.3%
O=C(NCCCN(CCCCN(CCCNC(=O)c1cccc(=O)n1[O-])C(=O)c1cccc(=O)n1[O-])C(=O)c1cccc(=O)n1[O-])c1cccc(=O)n1[O-].[89Zr+4] | radio-TLC | PBS | 7 d, pH 7.4, 37 °C, with: Co^2+ 10-fold excess |  | intact complex | 98.9 ± 1.6%
O=C(CCc1ccc(CNC(C(=O)OC2CCCC2)C2CCCCC2)cn1)NO (centres unmarked) |  | human, plasma | oral, 20 mg, multiple doses, once daily, patients |  | Vd/F | 107 L
CC(=O)Nc1ncc(CN2CC[C@H](Oc3cccc([18F])n3)C[C@@H]2C)s1 |  | human, plasma | dose not given, 3 min |  | unchanged parent | > 95%
COCC1CN(C2CCN(c3cc(OC)c(Nc4ncc(Br)c(Nc5ccc6c(c5P(C)(C)=O)OCCO6)n4)cc3C)CC2)C1 |  | human | oral, 10 to 240 mg once daily, safety set, all grades |  | patients with weight loss | 14.8%
CC(O)c1cc(Cl)ccc1Cn1c(=S)[nH]c(=O)c2[nH]ccc21 (centres unmarked) |  | Sprague-Dawley rat, female, plasma | oral, 125 mg/kg/day | baseline: rat over human 15 mg | exposure ratio | 1.6
CC(C)c1cnc(-c2cc(Cl)ccc2F)cc1Nc1ccncc1C(=O)NC(CO)CO | monotherapy, measured: myalgia | human patients | oral, dose not given, grade 3, phase I A |  | patients with treatment-related adverse event | 0%
CCCC[C@H](NC(=O)CNC(=O)CNC(=O)CN1CCN(CC(=O)O)CCN(CC(=O)O)CCN(CC(=O)O)CC1)C(=O)N[C@H]1CC(=O)NCCCC[C@@H](C(N)=O)NC(=O)[C@H](Cc2c[nH]c3ccccc23)NC(=O)[C@H](CCCNC(=N)N)NC(=O)[C@@H](Cc2ccccc2)NC(=O)[C@H](Cc2c[nH]cn2)NC1=O [indium-111 labelled] |  | C57 mouse, female, B16/F1 melanoma | intravenous, 0.037 MBq, 4 h |  | tumour to liver ratio | 31
COc1ccc2cc(-c3ccc(-c4ccc(C)cn4)nc3)oc2c1 | TCSPC | DMF |  |  | radiative decay rate constant | 0.38 ns⁻¹
CC(C)(F)CC(NC(c1ccc(-c2ccc(S(C)(=O)=O)cc2)cc1)C(F)(F)F)C(=O)NCC#CBr (centres unmarked) | LC-MS UV trace | aqueous buffer | concentration not given, 23 h, pH 7.5, 37 °C, with: cysteine 10 mM |  | cysteine adduct formation | 55%
COc1cc2c(cc1OC)CN(CCCCn1ccc3cc(OCC[18F])ccc31)C2 |  | ICR mice, male, lung | intravenous, 120 min |  | uptake | 3.41 ± 0.51 %ID/g
CC(C)(O)c1ncc([S@](N)(=O)=NC(=O)Nc2c3c(cc4c2CCC4)CCC3)s1 |  | healthy human | oral, 10 mg once daily, day 14, capsule formulation, median |  | Tmax | 150 min
OCc1cn(Cc2ccc(-c3noc(-c4ccc(OCC[18F])c(C(F)(F)F)c4)n3)cc2)nn1 |  | female Lewis rat, fat | intravenous, 120 min |  | tissue uptake | 0.57 ± 0.07 %ID/g
CCCCC/C=C/C=C/C(=O)NCC(C)C |  | rat plasma | 4000 ng/mL, three freeze-thaw cycles high QC | baseline: nominal concentration | relative error | 8.08%
C#CCOc1ccc(/C=C2\SC(=O)N(CC(=O)NCc3ccccc3)C2=O)cc1 | inverse Kirkwood-Buff integrals | binary solvent mixture | 298.15 K, mole fraction x1 0.95 |  | Kirkwood-Buff integral G1,3 | -258 cm³/mol
COC(=O)c1ccc(-c2cn(Cc3cc(Cl)ccc3O[11CH3])nn2)cc1 |  | C57BL/6 mouse, brain | dose not given, 60 min |  | radioactivity | 0.69 %ID/cc
CC(=O)N([O-])CCCCCNC(=O)CCC(=O)N([O-])CCCCCNC(=O)CCC(=O)N([O-])CCCCCN.[89Zr+4] | radio-iTLC | aqueous buffer | initial, pH 8.0, 37 °C, EDTA challenge, with: 100-fold excess EDTA |  | intact complex | 98.1 ± 0.2%
C[C@]12C[C@H](c3ccc(S(C)(=O)=O)cc3)C3=C4CCC(=O)C=C4CC[C@H]3[C@@H]1CC[C@@]2(O)C(F)(F)C(F)(F)F |  | rat, plasma |  |  | fraction unbound | 0.05
CC(C)[C@H](NC(=O)[C@@H]1CCCN1C(=O)[C@H](CCCNC(=N)N)NC(=O)[C@H](CS)NC(=O)[C@H](Cc1c[nH]c2ccccc12)NC(=O)[C@H](CCCNC(=N)N)NC(=O)[C@@H](Cc1ccccc1)NC(=O)[C@H](Cc1c[nH]cn1)NC(=O)[C@H](CCC(=O)O)NC(=O)[C@H](CS)NC(=O)[C@H](CS)NC(=O)[C@@H]1CC(=O)N[C@@H](CCCNC(=N)N)C(=O)NCC(=O)N[C@@H](CC(=O)O)C(=O)N[C@H](Cc2ccc(O)cc2)C(=O)N1)C(N)=O [technetium-99m labelled] |  | C57 mice B16/F1 melanoma female, urine | iv, 0.037 MBq, 4 h |  | excretion | 85.9 ± 2.09%
